Measured values collected from several papers.
Lines come from different studies, so protocols differ.

N#Cc1ccn2c(-c3ccncc3)c(-c3ccc(F)cc3)nc2c1  log2 fold change (kinase binding, competitor, MIB/MS competition, item: ATG1; Candida albicans cell lysate; 100 nM; baseline: DMSO): -0.0408
C[C@H](Oc1ccc(Br)cc1-c1ccon1)C(=O)O  difference from placebo (last response peak; human, tibialis anterior muscle; 50 mg, 30 Hz, single ascending dose): -4.22%
OC(CCN1CCCCC1)(c1ccccc1)C1CC2C=CC1C2 (stereo not drawn)  change in EEG Beta3-power Pz-O2 (resting-state EEG; healthy elderly humans; oral, 4 mg, eyes open, LS mean; baseline: baseline): 6.3%
Cc1n[nH]c2ccc(-c3cc(OC[C@@H](N)Cc4ccccc4)cnc3-c3ccoc3)cc12  log2 fold change (kinase binding, competitor, MIB/MS competition, item: TPK2; Candida albicans cell lysate; 100 nM; baseline: DMSO): -0.0872
CC(C)NCC(O)c1ccc(O)c(O)c1 (stereo not drawn)  sarcomere length (ventricular cardiomyocytes, C57BL/6 mouse; dose not given, 0.148 s): 1.58 µm
NC(=O)c1cnc2[nH]ccc2c1N[C@@H]1[C@@H]2CC3C[C@H]1C[C@@](O)(C3)C2  change from baseline (flow cytometry, item: CD8+ naive T cells; Japanese healthy subjects, peripheral blood; oral, 30 mg twice daily, day 7): -1.48%
C[C@@H](NC(=O)N1C(=O)[C@H](Cc2ccnc(N)c2)[C@H]1C(=O)O)C1CCCCC1  time to maximum PT over baseline (human, plasma; continuous intravenous infusion, 0.6 mg/kg/h, days 1 to 6 of 5-day infusion, median; baseline: baseline): 84.3 h
CN[C@@H]1COc2c(S(=O)(=O)NC(=O)Nc3c4c(cc5c3CCC5)CCC4)cnn2C1  inhibition (item: IL-18; human participants, whole blood ex vivo; 300 mg twice daily, multiple doses, 96 h, IL-18, circulating, adjusted for, with: LPS/ATP; baseline: baseline): 96.9%
O=C(O)CNC(=O)Cc1ccccc1  sarcomere length (ventricular cardiomyocytes, C57BL/6 mouse; dose not given, 0.796 s): 1.7 µm

A few entries again:
Cc1n[nH]c2ccc(-c3cc(OC[C@@H](N)Cc4ccccc4)cnc3-c3ccoc3)cc12  log2 fold change (kinase binding, competitor, MIB/MS competition, item: TPK2; Candida albicans cell lysate; 100 nM; baseline: DMSO): -0.0872
